Experimental data pooled from the literature.
Each line is one published result; not all experiments were run side by side.
Target: Alpha-glucosidase MAL12 (MAL12, Saccharomyces cerevisiae S288c, UniProt P53341)
Sequence of UniProt P53341 (whole entry, looked up): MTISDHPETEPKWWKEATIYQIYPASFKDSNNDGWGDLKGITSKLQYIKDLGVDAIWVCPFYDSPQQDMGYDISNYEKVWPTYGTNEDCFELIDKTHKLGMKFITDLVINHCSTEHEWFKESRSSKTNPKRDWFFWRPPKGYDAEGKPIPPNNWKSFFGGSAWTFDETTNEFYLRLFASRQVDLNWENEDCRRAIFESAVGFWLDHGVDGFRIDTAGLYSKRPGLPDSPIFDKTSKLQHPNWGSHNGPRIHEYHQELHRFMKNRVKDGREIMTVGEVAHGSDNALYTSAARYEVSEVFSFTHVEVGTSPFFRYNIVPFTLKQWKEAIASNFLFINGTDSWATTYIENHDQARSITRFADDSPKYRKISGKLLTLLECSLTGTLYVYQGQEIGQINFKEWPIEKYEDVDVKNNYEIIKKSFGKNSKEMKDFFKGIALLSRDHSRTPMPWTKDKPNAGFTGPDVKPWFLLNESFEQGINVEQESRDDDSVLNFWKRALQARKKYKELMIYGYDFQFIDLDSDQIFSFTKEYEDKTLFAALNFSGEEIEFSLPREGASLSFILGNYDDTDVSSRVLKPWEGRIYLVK
Effect on: enzyme activity
Action: inhibitor

| SMILES | method | tested at | pH | inhibition [%] |
| --- | --- | --- | --- | --- |
| COc1ccc(-c2c(C(F)(F)F)oc3c(Cn4ccnc4)c(O)ccc3c2=O)cc1 | – | 25 µM | pH 6.8 | 73.7 |
| Cc1cccc(/C=C/C(=O)c2cnn(-c3ccccc3)c2C)c1 | – | 100 µM | – | 16.1 |
| COc1c(-c2cccc(O)c2)oc2c(OC)c(O)cc(O)c2c1=O | absorbance | 1 µM | – | 6.8 |
| O=C(CN1C(C(=O)c2ccccc2)=C(O)c2ccccc2S1(=O)=O)Nc1ccccc1Br | absorbance | 500 µM | – | 69.4 |
| O=C1C(=O)N(CCOc2ccc(F)cc2)c2ccccc21 | – | 500 µM | pH 6.8 | 74.8 |
| COc1ccc(-c2c(C(F)(F)F)oc3c(Cn4cnc5ccccc54)c(O)ccc3c2=O)cc1 | – | 25 µM | pH 6.8 | 79.6 |
| COc1cc(O)c2c(=O)c(OC)c(-c3ccc(O)c(O)c3)oc2c1 | absorbance | 100 µM | – | 50.1 |
| O=C1C(=O)N(CCOc2ccc(Cl)cc2)c2ccc(Br)cc21 | – | 500 µM | pH 6.8 | 93.6 |
| COc1cc(-c2oc3cc(O)cc(O)c3c(=O)c2OC)ccc1O | absorbance | 25 µM | – | 69.3 |
| O=C1C(=O)N(CCOc2ccc(F)cc2)c2ccc(Br)cc21 | – | 500 µM | pH 6.8 | 91.7 |

Excerpt of the above:
| SMILES | method | tested at | pH | inhibition [%] |
| --- | --- | --- | --- | --- |
| COc1cc(-c2oc3cc(O)cc(O)c3c(=O)c2OC)ccc1O | absorbance | 25 µM | – | 69.3 |
